{"data": "Measurements of several laboratories", "note": "Every numbered part comes from another study and shows a few of its results, in no order. Changes are numbered by the printed parent chain."}
{"data": "Sample 1", "target": "Histone acetyltransferase KAT6A, winged helix 1, GST fusion (KAT6A, Homo sapiens, UniProt Q92794, residues 1-85)", "technique": "protein binding microarray", "molecule type": "double-stranded DNA, one strand shown", "sample": "in vitro", "tested at": "not given", "setting": "8-mer, flanks averaged, mean of 2 arrays, mostly near background", "reference": "not given", "direction": "higher = stronger binding", "Residues (chain)": "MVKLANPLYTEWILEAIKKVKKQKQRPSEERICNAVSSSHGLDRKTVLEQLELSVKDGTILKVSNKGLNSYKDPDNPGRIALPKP"}
{"Sequence": "GCAAATGC", "E-score": 0.0602}
{"Sequence": "CTACAAAG", "E-score": -0.192}
{"Sequence": "GCGTGTAC", "E-score": 0.186}
{"Sequence": "CGGTCGAC", "E-score": 0.26}
{"Sequence": "AAATCGAT", "E-score": -0.211}
{"Sequence": "ACGACCCG", "E-score": 0.296}
{"Sequence": "GCTTTTAA", "E-score": 0.0445}
{"Sequence": "ATCATAAC", "E-score": -0.0338}
{"Sequence": "CCATAATA", "E-score": -0.0839}
{"Sequence": "ATGCGGGA", "E-score": 0.223}
{"Sequence": "CGACAAAC", "E-score": 0.101}
{"Sequence": "GTAATCGA", "E-score": -0.0582}
{"Sequence": "GATCCATA", "E-score": 0.0439}
{"Sequence": "CAACTGTA", "E-score": -0.126}
{"Sequence": "GTTTGTAA", "E-score": -0.13}
{"Sequence": "AACGGGTG", "E-score": 0.28}
{"Sequence": "ATCGTTAA", "E-score": -0.0475}
{"data": "Sample 2", "target": "PABPC1L2, full length, GST fusion (mouse, UniProt A0ABA7IW68)", "technique": "RNAcompete", "molecule type": "RNA", "sample": "in vitro", "tested at": "20 nM", "setting": "7-mer, probes averaged, single round", "reference": "mean of 7-mers", "direction": "higher = stronger binding", "Target sequence (chain)": "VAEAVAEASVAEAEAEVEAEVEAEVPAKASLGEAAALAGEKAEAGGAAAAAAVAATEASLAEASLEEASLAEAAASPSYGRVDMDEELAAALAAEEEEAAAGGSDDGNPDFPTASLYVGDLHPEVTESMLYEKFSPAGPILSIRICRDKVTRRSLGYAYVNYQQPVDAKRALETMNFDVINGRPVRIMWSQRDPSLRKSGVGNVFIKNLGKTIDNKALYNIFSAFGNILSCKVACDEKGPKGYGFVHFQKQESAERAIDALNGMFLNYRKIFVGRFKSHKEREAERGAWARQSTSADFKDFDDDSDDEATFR"}
{"Sequence": "GGCGAUA", "7-mer Z-score": 0.256}
{"Sequence": "GUUGAAG", "7-mer Z-score": -0.211}
{"Sequence": "AGGCGUG", "7-mer Z-score": 0.202}
{"Sequence": "UAGUGUG", "7-mer Z-score": -0.251}
{"Sequence": "GAAGUAG", "7-mer Z-score": -0.0971}
{"Sequence": "CAGCAUU", "7-mer Z-score": -0.209}
{"Sequence": "AUGUGCG", "7-mer Z-score": 0.109}
{"Sequence": "GGCCCAG", "7-mer Z-score": -0.0645}
{"Sequence": "GACGCGA", "7-mer Z-score": -0.00833}
{"Sequence": "ACAAGGA", "7-mer Z-score": 0.432}
{"Sequence": "UCAUAUU", "7-mer Z-score": -0.197}
{"Sequence": "GCCAUGU", "7-mer Z-score": -0.199}
{"Sequence": "UGGAUGG", "7-mer Z-score": 0.0134}
{"Sequence": "ACGGCCA", "7-mer Z-score": 0.000733}
{"Sequence": "UAAACGU", "7-mer Z-score": 0.22}
{"Sequence": "UCGAAAG", "7-mer Z-score": -0.184}
{"Sequence": "UGUGCCG", "7-mer Z-score": -0.275}
{"Sequence": "AGAGCAG", "7-mer Z-score": -0.0536}
{"Sequence": "CAGGAUU", "7-mer Z-score": -0.0047}
{"Sequence": "GCGCUUA", "7-mer Z-score": -0.306}
{"Sequence": "AAGAUUU", "7-mer Z-score": 0.345}
{"Sequence": "GGUGGCA", "7-mer Z-score": 0.392}
{"Sequence": "AGUAUUA", "7-mer Z-score": -0.153}
{"Sequence": "GAGCUAC", "7-mer Z-score": -0.117}
{"Sequence": "CUACGAC", "7-mer Z-score": -0.237}
{"data": "Sample 3", "target": "RING finger protein unkempt homolog, zinc fingers 1-6, GST-SBP tag (UNK, Homo sapiens, UniProt Q9C0B0, residues 30-357)", "technique": "RNA Bind-n-Seq", "molecule type": "RNA", "sample": "in vitro", "tested at": "not given", "setting": "RNA with constant flanks, ends assumed", "reference": "input RNA pool", "direction": "higher = stronger binding", "all sequences stand within": "GGGAGUUCUACAGUCCGACGAUC … CAACAGAGGAUUGAGCAUCA", "Target sequence (chain)": "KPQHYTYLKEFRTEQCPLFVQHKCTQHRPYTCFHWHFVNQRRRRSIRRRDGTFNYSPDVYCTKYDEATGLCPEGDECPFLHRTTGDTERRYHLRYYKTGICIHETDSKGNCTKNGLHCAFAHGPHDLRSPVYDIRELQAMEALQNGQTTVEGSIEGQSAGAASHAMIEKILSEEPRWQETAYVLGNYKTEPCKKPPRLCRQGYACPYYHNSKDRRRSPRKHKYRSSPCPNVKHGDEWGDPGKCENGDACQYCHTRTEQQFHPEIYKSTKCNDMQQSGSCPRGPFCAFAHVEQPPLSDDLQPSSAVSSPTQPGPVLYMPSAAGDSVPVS"}
{"Sequence": "GACCCUUACUUCCACGAUCGUGUUGCUUCCUUCUAUGAAGGUCAGGUUGCAAUAUGGGAUCUCCGAAAAUUUGAGAAGCCAGUUUUGACUUUGACUGAACAACCAAAGCCCUUGACAAAG", "bound/input enrichment": "0.198 ratio"}
{"Sequence": "GAAGAGAAUUAUGGUGUGGUGUCCACAUAUGAUAGCAGUUUAUCUUCAUAUACGGUUCCUUCCGAAAGGGACAACUCAGAAGAAUUUCUUAAACGGGAGGCAAGGGCAAACCAGUUAGCA", "bound/input enrichment": "0.924 ratio"}
{"Sequence": "CUUCAGCUGGUGUUGGUCUGGCUGGGAGAGGUGCUGGGUGUCAUUGGGGACUCCCCAGAGCCCGUUCAGCGGUCCUUCCUUGUGGCUAGUGUUCUGCCAGGUCCCGAUGGCAACGUUAAC", "bound/input enrichment": "0.138 ratio"}
{"Sequence": "CUAAACUGUCAUUCACAACUUGGCUACACAUAGACUCUAGUCAGUUUUGUCUCCAGAACCUCCGGCUUUUGUAUUUUUUAAUUUUAAUUUCACUGUUAAUCCUUAUUGUCUUUUUUAUUA", "bound/input enrichment": "19 ratio"}
{"Sequence": "UAUUGAAUUGCUGAGGAUUUUGGGAAAAGACAAAUCAAAGUUCCCAUUCCAUGGAUCCCUCCGGUGCACCUUCCCAGUUUGUGGAUGUGGAUACACUACCAAGCUGGGGUGACUCAUGCC", "bound/input enrichment": "0.0977 ratio"}
{"Sequence": "GGGAGCAUUGGUGAAAUAGAAUCCUGCAAACUCGUGAGAGACAAAAUCACAGGACAGAGUUCCGGGUAUGGAUUUGUUAACUAUAUUGAUCCAAAGGAUGCAGAGAAAGCCAUCAACACU", "bound/input enrichment": "0.236 ratio"}
{"Sequence": "GCUCCAAACCAGUUCUUCUGCAGAGUGGUGAUGUUAGCUUCCCCAGCUCCUCUCCAAGUCCCGCUUUUUCUGUCCUUCUGGCUCCAAGGUGCUCUGUGUCUGUGUGUGUGUGUCUGUCUG", "bound/input enrichment": "0.842 ratio"}
{"Sequence": "GACCCCCACUCCCUGUGAGAGGGAAUGGGGGAAGCCUGAUGACCCUCAGCUGUUCCAAUCCCGUAUUUUUUUUCUUUUUUAAAAUUACUGUAUUUAUUAUGACGAUGGUGACUCCCCAGU", "bound/input enrichment": "3.95 ratio"}
{"data": "Sample 4", "target": "CCNF, cyclin fold, Cln2 fusion (human)", "technique": "yeast growth competition, sequencing", "sample": "yeast", "setting": "strong parent motif", "reference": "not given", "direction": "higher = stronger binding", "parent": "WEE1 docking peptide (human); HKTFRKLRLFDTP"}
{"Substitution": "HKTFRKLRCFDTP [L9C]", "normalised enrichment score": 1.25}
{"Substitution": "HPTFRKLRLFDTP [K2P]", "normalised enrichment score": 3.06}
{"Substitution": "QKTFRKLRLFDTP [H1Q]", "normalised enrichment score": 2.21}
{"Substitution": "HKTFRKLRLFDVP [T12V]", "normalised enrichment score": 2.9}
{"Substitution": "HKTMRKLRLFDTP [F4M]", "normalised enrichment score": 2.6}
{"Substitution": "HKTFRKLRLFQTP [D11Q]", "normalised enrichment score": 3.59}
{"Substitution": "HKTFRKLRLEDTP [F10E]", "normalised enrichment score": 1.46}
{"Substitution": "HKTFRKLRLFDTT [P13T]", "normalised enrichment score": 3.06}
{"Substitution": "HKEFRKLRLFDTP [T3E]", "normalised enrichment score": 0.608}
{"Substitution": "HKTFRKLRLYDTP [F10Y]", "normalised enrichment score": 1.66}
{"Substitution": "HKTFRKLRTFDTP [L9T]", "normalised enrichment score": 0.346}
{"Substitution": "HKTFRKLRSFDTP [L9S]", "normalised enrichment score": 1.48}
{"Substitution": "HETFRKLRLFDTP [K2E]", "normalised enrichment score": 1.91}
{"Substitution": "HKTFRKLRLFDTW [P13W]", "normalised enrichment score": 2.1}
{"Substitution": "HKTFRKLRKFDTP [L9K]", "normalised enrichment score": 3.21}
{"Substitution": "RKTFRKLRLFDTP [H1R]", "normalised enrichment score": 1.17}
{"Substitution": "HKTFRKLRLSDTP [F10S]", "normalised enrichment score": 1.58}
{"Substitution": "HKTQRKLRLFDTP [F4Q]", "normalised enrichment score": 3.77}
{"Substitution": "HKTFRKLRLFDTG [P13G]", "normalised enrichment score": 1.97}
{"note": "A few entries again (sample 2):"}
{"Sequence": "GGCCCAG", "7-mer Z-score": -0.0645}
{"Sequence": "GACGCGA", "7-mer Z-score": -0.00833}
{"Sequence": "ACAAGGA", "7-mer Z-score": 0.432}
{"Sequence": "UCAUAUU", "7-mer Z-score": -0.197}
{"Sequence": "GCCAUGU", "7-mer Z-score": -0.199}
{"Sequence": "UGGAUGG", "7-mer Z-score": 0.0134}
{"Sequence": "ACGGCCA", "7-mer Z-score": 0.000733}
{"Sequence": "UAAACGU", "7-mer Z-score": 0.22}
